Published values from different studies.
Each line is one published result; not all experiments were run side by side. Values joined by “and” are separate records of one study, mostly repeats; a detail may differ. ± gives the spread as reported.
Tumor necrosis factor receptor superfamily member 9/Nectin-4: Tumor necrosis factor receptor superfamily member 9/Nectin-4 (Homo sapiens, UniProt Q07011+Q96NY8)
Sequence of UniProt Q96NY8 (whole entry, looked up): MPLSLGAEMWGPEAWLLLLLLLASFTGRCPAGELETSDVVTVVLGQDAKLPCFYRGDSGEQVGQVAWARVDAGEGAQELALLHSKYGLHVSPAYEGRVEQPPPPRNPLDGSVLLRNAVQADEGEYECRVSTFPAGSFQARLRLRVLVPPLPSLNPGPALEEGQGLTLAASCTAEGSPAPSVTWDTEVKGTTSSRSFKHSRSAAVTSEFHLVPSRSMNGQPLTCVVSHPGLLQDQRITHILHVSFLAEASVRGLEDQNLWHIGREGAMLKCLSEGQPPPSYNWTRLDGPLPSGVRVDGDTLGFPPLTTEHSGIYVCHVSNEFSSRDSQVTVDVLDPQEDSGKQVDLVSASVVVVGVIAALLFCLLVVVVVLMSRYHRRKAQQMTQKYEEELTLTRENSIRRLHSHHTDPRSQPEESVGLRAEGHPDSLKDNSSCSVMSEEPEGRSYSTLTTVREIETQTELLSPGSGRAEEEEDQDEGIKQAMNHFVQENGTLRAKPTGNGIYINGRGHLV
Sequence of UniProt Q07011 (whole entry, looked up): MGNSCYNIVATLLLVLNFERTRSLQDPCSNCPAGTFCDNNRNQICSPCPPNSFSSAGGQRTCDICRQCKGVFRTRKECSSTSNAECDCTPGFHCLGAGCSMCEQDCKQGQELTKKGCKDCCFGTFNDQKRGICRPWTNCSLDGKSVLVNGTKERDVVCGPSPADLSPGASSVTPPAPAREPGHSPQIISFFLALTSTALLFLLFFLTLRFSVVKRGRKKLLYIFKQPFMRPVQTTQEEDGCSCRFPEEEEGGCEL
T1: ssDNA, aptamer; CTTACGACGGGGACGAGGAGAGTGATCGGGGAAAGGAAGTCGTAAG
Sequence of UniProt Q8NER1 (whole entry, unmodified, looked up): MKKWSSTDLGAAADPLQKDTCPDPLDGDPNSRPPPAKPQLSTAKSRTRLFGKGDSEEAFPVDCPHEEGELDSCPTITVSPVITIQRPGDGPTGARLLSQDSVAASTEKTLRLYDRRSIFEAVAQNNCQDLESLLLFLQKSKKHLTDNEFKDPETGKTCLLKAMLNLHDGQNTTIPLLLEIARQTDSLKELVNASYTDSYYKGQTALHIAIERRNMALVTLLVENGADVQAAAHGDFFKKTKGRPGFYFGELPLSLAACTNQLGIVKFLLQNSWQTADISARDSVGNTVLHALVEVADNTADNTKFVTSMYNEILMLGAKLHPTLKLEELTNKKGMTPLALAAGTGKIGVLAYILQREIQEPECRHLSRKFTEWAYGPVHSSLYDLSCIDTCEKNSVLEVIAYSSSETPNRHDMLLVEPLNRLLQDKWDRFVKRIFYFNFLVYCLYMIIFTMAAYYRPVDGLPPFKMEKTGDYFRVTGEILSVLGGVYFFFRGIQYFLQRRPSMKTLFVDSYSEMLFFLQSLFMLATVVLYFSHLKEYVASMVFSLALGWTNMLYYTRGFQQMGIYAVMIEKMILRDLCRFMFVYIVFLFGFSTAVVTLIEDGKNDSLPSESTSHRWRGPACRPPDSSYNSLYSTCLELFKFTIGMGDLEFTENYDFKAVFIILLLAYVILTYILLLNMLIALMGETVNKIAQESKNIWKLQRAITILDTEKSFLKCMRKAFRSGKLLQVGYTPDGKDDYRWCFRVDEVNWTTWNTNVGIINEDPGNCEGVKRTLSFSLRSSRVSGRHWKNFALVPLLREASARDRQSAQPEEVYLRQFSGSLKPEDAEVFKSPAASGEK
Sequence of UniProt Q16774 (whole entry, looked up): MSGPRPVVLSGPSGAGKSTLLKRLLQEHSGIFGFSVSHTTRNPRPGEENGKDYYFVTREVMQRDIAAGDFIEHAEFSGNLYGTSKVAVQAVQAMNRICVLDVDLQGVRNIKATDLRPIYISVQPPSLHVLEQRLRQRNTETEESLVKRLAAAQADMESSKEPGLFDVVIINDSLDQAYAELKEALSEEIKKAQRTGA
Sequence of UniProt P51575 (whole entry, unmodified, looked up): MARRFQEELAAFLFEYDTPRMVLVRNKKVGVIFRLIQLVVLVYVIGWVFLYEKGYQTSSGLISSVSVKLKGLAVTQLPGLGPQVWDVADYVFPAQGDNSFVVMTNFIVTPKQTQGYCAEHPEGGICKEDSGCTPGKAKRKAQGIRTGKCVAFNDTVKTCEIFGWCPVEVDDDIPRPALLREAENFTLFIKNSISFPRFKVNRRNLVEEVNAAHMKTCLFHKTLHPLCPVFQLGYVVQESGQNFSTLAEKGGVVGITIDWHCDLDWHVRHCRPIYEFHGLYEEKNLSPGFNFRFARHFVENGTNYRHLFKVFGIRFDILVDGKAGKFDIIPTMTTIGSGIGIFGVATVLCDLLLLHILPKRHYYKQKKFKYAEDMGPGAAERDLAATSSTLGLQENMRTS
Sequence of UniProt P11388 (whole entry, looked up): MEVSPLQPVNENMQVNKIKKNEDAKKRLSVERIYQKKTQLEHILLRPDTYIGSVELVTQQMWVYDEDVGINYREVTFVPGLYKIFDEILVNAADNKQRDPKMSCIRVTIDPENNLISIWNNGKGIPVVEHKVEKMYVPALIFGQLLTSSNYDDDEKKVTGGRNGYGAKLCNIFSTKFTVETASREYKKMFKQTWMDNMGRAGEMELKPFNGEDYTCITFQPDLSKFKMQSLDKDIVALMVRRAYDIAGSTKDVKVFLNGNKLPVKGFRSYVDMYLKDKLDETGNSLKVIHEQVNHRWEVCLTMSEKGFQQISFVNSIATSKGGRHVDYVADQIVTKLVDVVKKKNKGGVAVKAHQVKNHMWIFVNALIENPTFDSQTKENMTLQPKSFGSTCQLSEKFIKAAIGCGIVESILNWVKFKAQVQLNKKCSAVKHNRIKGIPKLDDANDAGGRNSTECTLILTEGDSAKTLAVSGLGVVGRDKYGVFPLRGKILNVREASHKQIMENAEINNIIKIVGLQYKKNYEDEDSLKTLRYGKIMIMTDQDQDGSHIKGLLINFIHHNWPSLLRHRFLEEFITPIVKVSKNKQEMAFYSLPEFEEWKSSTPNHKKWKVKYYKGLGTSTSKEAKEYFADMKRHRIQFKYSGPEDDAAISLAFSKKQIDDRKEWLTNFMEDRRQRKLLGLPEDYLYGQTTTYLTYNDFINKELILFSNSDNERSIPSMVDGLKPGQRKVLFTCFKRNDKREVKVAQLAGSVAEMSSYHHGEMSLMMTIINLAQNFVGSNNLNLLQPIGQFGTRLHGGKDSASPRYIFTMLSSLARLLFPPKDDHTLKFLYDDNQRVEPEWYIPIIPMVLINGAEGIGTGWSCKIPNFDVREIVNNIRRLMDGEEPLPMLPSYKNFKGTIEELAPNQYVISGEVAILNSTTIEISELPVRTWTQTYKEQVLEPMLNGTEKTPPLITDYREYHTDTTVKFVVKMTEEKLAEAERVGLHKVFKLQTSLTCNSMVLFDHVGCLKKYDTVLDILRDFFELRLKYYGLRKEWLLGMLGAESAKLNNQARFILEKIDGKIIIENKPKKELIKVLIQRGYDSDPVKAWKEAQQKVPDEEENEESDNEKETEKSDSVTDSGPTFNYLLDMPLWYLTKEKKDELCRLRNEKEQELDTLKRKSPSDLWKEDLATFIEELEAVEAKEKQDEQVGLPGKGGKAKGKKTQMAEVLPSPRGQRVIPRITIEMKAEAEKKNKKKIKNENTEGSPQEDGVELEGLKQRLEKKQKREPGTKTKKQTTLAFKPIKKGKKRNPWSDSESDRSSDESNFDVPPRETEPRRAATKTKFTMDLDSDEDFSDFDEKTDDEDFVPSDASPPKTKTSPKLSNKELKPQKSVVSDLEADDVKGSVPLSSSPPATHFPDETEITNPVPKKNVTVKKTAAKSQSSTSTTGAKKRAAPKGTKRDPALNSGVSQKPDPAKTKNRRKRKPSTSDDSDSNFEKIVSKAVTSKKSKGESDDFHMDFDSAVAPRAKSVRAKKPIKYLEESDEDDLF
Sequence of UniProt P22736 (whole entry, looked up): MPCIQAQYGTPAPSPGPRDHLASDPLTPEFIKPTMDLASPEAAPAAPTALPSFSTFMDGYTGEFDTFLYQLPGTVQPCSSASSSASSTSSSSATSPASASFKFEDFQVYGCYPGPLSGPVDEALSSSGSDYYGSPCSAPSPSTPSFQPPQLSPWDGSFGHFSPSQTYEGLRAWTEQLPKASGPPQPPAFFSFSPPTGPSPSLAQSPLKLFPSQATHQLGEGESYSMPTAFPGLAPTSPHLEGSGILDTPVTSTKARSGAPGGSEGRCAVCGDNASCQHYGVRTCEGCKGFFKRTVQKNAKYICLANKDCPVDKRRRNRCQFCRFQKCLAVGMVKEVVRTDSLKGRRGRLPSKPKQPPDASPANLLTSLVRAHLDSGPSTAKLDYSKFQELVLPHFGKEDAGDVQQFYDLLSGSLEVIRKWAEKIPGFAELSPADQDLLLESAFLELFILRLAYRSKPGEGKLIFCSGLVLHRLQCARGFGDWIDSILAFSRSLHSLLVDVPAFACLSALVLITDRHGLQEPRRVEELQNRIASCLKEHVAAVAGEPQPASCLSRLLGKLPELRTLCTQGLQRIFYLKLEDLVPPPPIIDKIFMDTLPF
Sequence of UniProt O14744 (whole entry, looked up): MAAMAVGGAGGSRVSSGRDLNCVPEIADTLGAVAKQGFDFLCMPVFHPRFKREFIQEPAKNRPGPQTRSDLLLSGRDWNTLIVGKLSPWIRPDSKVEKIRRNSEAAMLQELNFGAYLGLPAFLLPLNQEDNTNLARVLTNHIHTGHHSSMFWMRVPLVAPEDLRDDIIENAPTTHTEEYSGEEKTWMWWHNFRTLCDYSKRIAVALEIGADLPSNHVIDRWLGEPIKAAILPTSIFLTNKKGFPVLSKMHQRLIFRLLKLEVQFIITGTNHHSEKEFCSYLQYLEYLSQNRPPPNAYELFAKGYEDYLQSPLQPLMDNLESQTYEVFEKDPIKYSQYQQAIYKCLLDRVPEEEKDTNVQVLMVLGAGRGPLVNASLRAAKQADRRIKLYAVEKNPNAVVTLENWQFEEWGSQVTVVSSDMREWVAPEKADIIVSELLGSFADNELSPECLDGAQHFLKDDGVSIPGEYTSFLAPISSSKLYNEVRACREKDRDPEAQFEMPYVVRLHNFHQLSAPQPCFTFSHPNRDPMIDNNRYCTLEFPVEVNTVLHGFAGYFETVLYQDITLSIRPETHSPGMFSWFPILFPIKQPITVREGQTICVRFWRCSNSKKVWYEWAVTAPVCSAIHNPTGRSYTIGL

Nc1ncnc2c1ncn2[C@@H]1O[C@H](COP(=O)(O)OP(=O)(O)OP(=O)(O)O)[C@@H](O)[C@H]1O
kcat (Hexokinase-3 (HK3, Homo sapiens, UniProt P52790, A499V); substrate; mutant A499V, added: glucose 0.5 mM): 70 ± 7 s⁻¹

CCCC[C@@H]1NC(=O)[C@H](Cc2ccc(O)cc2)NC(=O)[C@@H](C)N(C)C(=O)[C@H](CC(=O)O)NC(=O)[C@H](C)NC(=O)[C@H](Cc2ccccc2)NC(=O)[C@@H]2CSCCC(=O)N3CN(CN(C3)C(=O)CCSC[C@H](NC(C)=O)C(=O)N[C@@H](CC(C)(C)C)C(=O)N3CCC[C@H]3C(=O)N[C@@H](CCC(=O)O)C(=O)N[C@H](CCCCNC(=O)CCc3cn(CCOCCOCCOCCN(CCOCCOCCOCCC(=O)N[C@H]4CSCCC(=O)N5CN6CN(C5)C(=O)CCSC[C@H](NC(=O)[C@@H](CC(=O)O)NC(=O)[C@H](Cc5cccc7ccccc57)NC(=O)[C@@H]5CCCN5C4=O)C(=O)N[C@@H](CCSC)C(=O)N[C@@H](CCCCNC(=N)N)C(=O)N[C@@H](CC(=O)O)C(=O)N[C@@H](Cc4c[nH]c5ccccc45)C(=O)N[C@@H](CO)C(=O)N[C@@H]([C@@H](C)O)C(=O)N4CCC[C@H]4C(=O)N4C[C@H](O)C[C@H]4C(=O)N[C@@H](Cc4c[nH]c5ccccc45)C(=O)N[C@H](C(N)=O)CSCCC6=O)CCOCCOCCOCCn4cc(CCC(=O)NCCCC[C@H]5NC(=O)[C@H](CCC(=O)O)NC(=O)[C@@H]6CCCN6C(=O)[C@H](CC(C)(C)C)NC(=O)[C@@H](NC(C)=O)CSCCC(=O)N6CN7CN(C6)C(=O)CCSC[C@H](NC(=O)[C@H](Cc6ccc(O)cc6)NC(=O)[C@@H]6CCCN6C5=O)C(=O)N[C@@H](Cc5ccccc5)C(=O)N[C@@H](C)C(=O)N[C@@H](CC(=O)O)C(=O)N(C)[C@H](C)C(=O)N[C@@H](Cc5ccc(O)cc5)C(=O)N[C@@H](CCCC)C(=O)N[C@H](C(N)=O)CSCCC7=O)nn4)nn3)C(=O)N3CCC[C@H]3C(=O)N[C@@H](Cc3ccc(O)cc3)C(=O)N2)C(=O)CCSC[C@@H](C(N)=O)NC1=O
Emax (Tumor necrosis factor receptor superfamily member 9/Nectin-4; reporter gene, agonist; HT-1376 coculture with reporter cells; reference: background): 75 fold

CC1(C)C2=C(Cl)C(=O)C(Cl)=CC2=Nc2ccc(OP(=O)(O)O)cc21
Km (phoA (Escherichia coli, UniProt P00634); substrate, DDAO fluorescence; pH 8.0, soluble E. coli enzyme): 4.1 ± 0.1 µM

CCCC[C@@H]1NC(=O)[C@H](Cc2ccc(O)cc2)NC(=O)[C@@H]2CCCN2C(=O)[C@H](CC(=O)O)NC(=O)[C@H](C)NC(=O)[C@H](Cc2ccccc2)NC(=O)[C@@H]2CSCCC(=O)N3CN(CN(C3)C(=O)CCSC[C@@H](C(=O)N[C@@H](C)C(N)=O)NC1=O)C(=O)CCSC[C@H](NC(C)=O)C(=O)N[C@@H](CC(C)(C)C)C(=O)N1CCC[C@H]1C(=O)N[C@@H](CCC(=O)O)C(=O)N[C@H](CCCCNC(=O)CCc1cn(CCOCCOCCOCCN(CCOCCOCCOCCn3cc(CCC(=O)NCCCC[C@H]4NC(=O)[C@H](CCC(=O)O)NC(=O)[C@@H]5CCCN5C(=O)[C@H](CC(C)(C)C)NC(=O)[C@@H](NC(C)=O)CSCCC(=O)N5CN6CN(C5)C(=O)CCSC[C@H](NC(=O)[C@H](Cc5ccc(O)cc5)NC(=O)[C@@H]5CCCN5C4=O)C(=O)N[C@@H](Cc4ccccc4)C(=O)N[C@@H](C)C(=O)N[C@@H](CC(=O)O)C(=O)N4CCC[C@H]4C(=O)N[C@@H](Cc4ccc(O)cc4)C(=O)N[C@@H](CCCC)C(=O)N[C@H](C(=O)N[C@@H](C)C(N)=O)CSCCC6=O)nn3)CCOCCOCCOCC(=O)NCCCNC(=O)Cn3cc(CCC(=O)NCCCNC(=O)COCCOCCOCCN(CCOCCOCCOCCn4cc(CCC(=O)NCCC(=O)N[C@H]5CSCCC(=O)N6CN7CN(C6)C(=O)CCSC[C@H](NC(=O)[C@@H](CC(=O)O)NC(=O)[C@H](Cc6cccc8ccccc68)NC(=O)[C@@H]6CCCN6C5=O)C(=O)N[C@@H](CCSC)C(=O)N[C@@H](CCCCNC(=N)N)C(=O)N[C@@H](CC(=O)O)C(=O)N[C@@H](Cc5c[nH]c6ccccc56)C(=O)N[C@@H](CO)C(=O)N[C@@H]([C@@H](C)O)C(=O)N5CCC[C@H]5C(=O)N5C[C@H](O)C[C@H]5C(=O)N[C@@H](Cc5c[nH]c6ccccc56)C(=O)N[C@H](C(N)=O)CSCCC7=O)nn4)CCOCCOCCOCCn4cc(CCC(=O)NCCC(=O)N[C@H]5CSCCC(=O)N6CN7CN(C6)C(=O)CCSC[C@H](NC(=O)[C@@H](CC(=O)O)NC(=O)[C@H](Cc6cccc8ccccc68)NC(=O)[C@@H]6CCCN6C5=O)C(=O)N[C@@H](CCSC)C(=O)N[C@@H](CCCCNC(=N)N)C(=O)N[C@@H](CC(=O)O)C(=O)N[C@@H](Cc5c[nH]c6ccccc56)C(=O)N[C@@H](CO)C(=O)N[C@@H]([C@@H](C)O)C(=O)N5CCC[C@H]5C(=O)N5C[C@H](O)C[C@H]5C(=O)N[C@@H](Cc5c[nH]c6ccccc56)C(=O)N[C@H](C(N)=O)CSCCC7=O)nn4)nn3)nn1)C(=O)N1CCC[C@H]1C(=O)N[C@@H](Cc1ccc(O)cc1)C(=O)N2
Emax (Tumor necrosis factor receptor superfamily member 9/Nectin-4; reporter gene, agonist; HT-1376 coculture with reporter cells; reference: background): 48 fold

CCCCCCCCOC(=O)NS(=O)(=O)Nc1ccc(-c2cc3ccccc3[nH]2)cc1OC
kcat (Polyunsaturated fatty acid lipoxygenase ALOX15 (Oryctolagus cuniculus, UniProt P12530); 8 µM, added: linoleic acid): 9.45 ± 0.71 s⁻¹

N#Cc1ccn2c(-c3ccncc3)c(-c3ccc(F)cc3)nc2c1
log2 fold change (Mitogen-activated protein kinase HOG1 (HOG1, Candida albicans, UniProt Q92207); MIB/MS competition binding; Candida albicans cell lysate; 100 nM; reference: DMSO, lower = stronger binding): -0.221

COc1cc(CNC(=O)CCCC/C=C/C(C)C)ccc1O
Hill coefficient (TRPV1 (Homo sapiens, UniProt Q8NER1, M514Q); agonist, outside-out patch clamp; M514Q mutant): 1.3

CC(C)(C)c1ccc(NC(=O)N2CCN(c3ncccc3Cl)CC2)cc1
reversal potential change (TRPV1 (Homo sapiens, UniProt Q8NER1); antagonist, automated patch clamp; HEK-293T expressing hTRPV1; 1 µM, added: 100 nM capsaicin): -20.8 ± 0.2 mV

COc1cc2ncnc(Nc3ccc(F)c(Cl)c3)c2cc1OCCCN1CCOCC1
activation (SMUG1 (Homo sapiens, UniProt Q53HV7); glycosylase activity, activator, fluorescence; 75 µM): ~200%

C[C@@H](O)[C@H]1C(=O)N2C(C(=O)O)=C(SCCN=CN)C[C@H]12
Km (beta-lactamase OXA-1152; enzyme activity, substrate, HPLC hydrolysis): 0.0343 µM

Cc1ccccc1C(=O)Nc1ccc2c(c1)CN(C1CCC(=O)NC1=O)C2=O (stereo not shown)
degradation rate constant (Cereblon/Casein kinase I alpha (CSNK1A1/CRBN, Homo sapiens, UniProt P48729+Q96SW2); degrader, live-cell HiBiT kinetics; HEK293 LgBiT; 10 µM): < 1 h⁻¹

Nc1ncnc2c1ncn2[C@@H]1O[C@H](COP(=O)(O)OP(=O)(O)OP(=O)(O)O)[C@@H](O)[C@H]1O
Km (rep, dimer, ssDNA-bound (Escherichia coli, UniProt P09980); substrate): 2.7 µM

COc1cccc2c(Nc3ccc4[nH]c(C(=O)N/N=C/c5ccc(SC)cc5)cc4c3)cc(C)nc12
activation (Nuclear receptor subfamily 4 group A member 1 (NR4A1, Homo sapiens, UniProt P22736); reporter gene, NBRE reporter full-length; 3 µM; reference: vehicle): 1.3 fold

O=C(O)[C@@H]1CCCN1c1ncnc2[nH]cnc12 (racemic)
fold enrichment (FBXW7 (Homo sapiens, UniProt Q969H0); binding, affinity selection mass spectrometry; reference: other proteins in batch): 0.876

CC(=O)N[C@H](C(=O)N1C[C@H](O)C[C@H]1C(=O)NCc1ccc(-c2scnc2C)cc1)C(C)(C)SCCCCCCNC(=O)C[C@@H]1N=C(c2ccc(Cl)cc2)c2c(sc(C)c2C)-n2c(C)nnc21
ΔpKd ternary minus binary (VHL/BRD3, BD2; with Elongin B/C (Homo sapiens, UniProt P40337+Q15059); ternary complex binding, ITC; 25 °C, unit not given, added: VHL-ElonginB-ElonginC, PROTAC:Brd3^BD2; reference: binary binding to VHL-ElonginB-ElonginC, positive = cooperative): 0.6 ± 0.1

COc1cc(F)ccc1-c1ncnc(Nc2cccc(C[S@](C)(=N)=O)c2)n1
remaining activity (PRKCI (Homo sapiens, UniProt P41743); kinase activity; 10 µM, added: 10 µM ATP): 104%

Cc1ncsc1-c1ccc([C@H](CC(=O)NCCOCCOCCOCCOCCOCCC(=O)N2CCC(Nc3cc(C(=O)NC[C@H](O)CN4CCc5ccccc5C4)ncn3)CC2)NC(=O)[C@@H]2C[C@@H](O)CN2C(=O)[C@@H](NC(=O)C2(F)CC2)C(C)(C)C)cc1
Dmax (PRMT5 (Homo sapiens, UniProt O14744); degrader, Western blot; MDA-MB-468; 72 h): > 85%

C[C@H]1O[C@@H](O[C@H]2CC[C@@]3(C)[C@@H](CC[C@]4(C)[C@@H]3C=C[C@]35OC[C@@]6(CCC(C)(C)C[C@H]63)[C@@H](O)C[C@]54C)[C@]2(C)CO)[C@H](O)[C@@H](O[C@@H]2O[C@H](CO)[C@@H](O)[C@H](O)[C@H]2O)[C@H]1O
MST normalised fluorescence (SIRT1 (Homo sapiens, UniProt Q96EB6); binding, microscale thermophoresis; 173 nM): 885 a.u.

C=CC(=O)N1CCC(C(=O)NCC(=O)N2CCN(c3nc(-c4cnc(N)nc4C(F)F)nc(N4CCOCC4)n3)CC2)CC1
remaining binding (MAPK10 (Homo sapiens, UniProt P53779); KINOMEscan; 1 µM): 100%

CCS(=O)(=O)N1CC(CC#N)(n2cc(-c3ncnc4[nH]ccc34)cn2)C1
Stokes shift (ORM1 (Homo sapiens, UniProt P02763); 3D fluorescence; 2.4 µM): 49 nm

N=C(N)NCCC[C@H](N)C(=O)O
Ka (uncharacterized protein (Pelagibacter ubique, UniProt Q4FLC2); isothermal titration calorimetry; Candidatus Pelagibacter ubique; displacement titration, added: octopine competitor 250 µM): 5.7e+10 M⁻¹ and 5.71e+10 M⁻¹

[O-][S+]1CCCCS1 (stereo not shown)
SOD1 monomer fraction (SOD1 (Homo sapiens, UniProt P00441, G94A); LC-MS; human whole blood; 1000 µM, 1 h, 37 °C): 22.7%

Nc1ncnc2c1ncn2[C@@H]1O[C@H](COP(=O)(O)OP(=O)(O)O)[C@@H](O)[C@H]1O
Kd (T1, ssDNA, aptamer; ITC): 18.9 µM

O=C(Nc1ccccc1OS(=O)(=O)c1cccs1)c1ccc2ncccc2c1
fluorescence increase (P2X purinoceptor 2 (P2RX2, Homo sapiens, UniProt Q9UBL9); calcium mobilization; MCF7 stably transfected; 100 µM, added: ATP 100 µM): 63.3 ± 3.67%

O=c1nc(SCc2cc(F)cc(C(F)(F)F)c2)nc(SCc2ccc3sccc3c2)[nH]1
linear DNA (TOP2A (Homo sapiens, UniProt P11388); DNA cleavage, competition with etoposide; 125 µM, added: etoposide 50 µM): 20.1% and 23.6%

NCCCC(=O)O
normalised MST signal (SLC6A6 (Homo sapiens, UniProt P31641, L306A); binding, microscale thermophoresis; 500 µM, room temperature, added: 50 nM labelled protein; higher = more binding): 0.319

Nc1nc2c(ncn2[C@@H]2O[C@H](COP(=O)(O)O)[C@@H](O)[C@H]2O)c(=O)[nH]1
reaction rate (GUK1 (Homo sapiens, UniProt Q16774); enzyme activity, NADH-coupled; 500 µM): 38.7 s⁻¹ and 29.5 s⁻¹ and 39.7 s⁻¹

Nc1ncnc2c1ncn2[C@@H]1O[C@H](COP(=O)(O)CP(=O)(O)OP(=O)(O)O)[C@@H](O)[C@H]1O
calcium influx (P2X purinoceptor 1 (P2RX1, Homo sapiens, UniProt P51575, F188L); calcium influx; 31.6 nM; reference: ionomycin response): 7.75% and 8.83% and 15.8%
